Assay results from different studies.
Numbered parts are unrelated; each lists some results of a single study.

Block 1
Target: Protein max, full length (MAX, Homo sapiens, UniProt P61244-2, residues 1-151)
Method: protein-binding microarray
Molecule type: double-stranded DNA, one strand shown
Medium: in vitro
Concentration: not given
Setting: k-mer, scored over probes, only values ≥0.25
Reading: higher = stronger binding
Endpoint: E-score
CACGAGTC: 0.373
CGCGCGGA: 0.276
GACCATGC: 0.44

Block 2
Target: Prothrombin, mature alpha-thrombin (F2, Homo sapiens, UniProt P00734)
Method: aptamer microarray, sandwich
Molecule type: DNA with 2'F-ANA
Medium: in vitro
Concentration: 200 nM
Setting: whole 15-mer aptamer, many near background
With: Cy3 exosite-II aptamer, 400 nM
Reading: higher = stronger binding
Endpoint: mean fluorescence intensity
Sequence: GGTTGGTGTGGTTGG
2'F-ANA at 1 2 4 8 9 10 12 13 15: 54.3 a.u.
2'F-ANA at 3 4 6 8 10 11: 233 a.u.
2'F-ANA at 1 2 5 6 7 8 9 10 13 14: 55.8 a.u.
2'F-ANA at 4 7 9 14 15: 97 a.u.
2'F-ANA at 2 5 6 7 8 10 12: 57 a.u.

Block 3
Target: Interferon regulatory factor 5, full length, phosphomimetic (IRF5, Homo sapiens, UniProt Q13568-2, residues 1-514, K96S/S451D/S453D/S456D/S462D)
Method: protein-binding microarray
Molecule type: double-stranded DNA, one strand shown
Medium: in vitro
Concentration: 250 nM
Setting: 60-bp whole probe
With: salmon DNA 0.4 mg/ml
Relative to: random background probes
Reading: higher = stronger binding
Endpoint: log fluorescence
GCCTAGCACTCAACACTAATTTTTACACTGTGCTAGGTCTTGATTCGCTTGACGCTGCTG: 0.823 z-score
GCCTAGCACGACGAACTGAGTAGCGAGACGTGCTAGGTCTTGATTCGCTTGACGCTGCTG: -0.378 z-score
GCCTAGCACTCACCTCAGGGTTTCAGACTGTGCTAGGTCTTGATTCGCTTGACGCTGCTG: -0.0826 z-score
GCCTAGCACTTAGGTTTCGGGTATCGCTTAGTGCTAGTCTTGATTCGCTTGACGCTGCTG: 9.35 z-score

Further values, each from its own experiment
PhoQ, residues 284 288 289 292 302 303 AQGLTV — fold induction (PhoP, residues 12 14 15 18 19 LFHKL (Escherichia coli, UniProt P23836); Sort-seq, item: YFP reporter; E. coli; PhoQ-PhoP variant library, with: 10 µM Mg2+; relative to: high Mg2+ state, higher = stronger signaling): 2.46

Some of these lines once more (block 3):
GCCTAGCACTCACCTCAGGGTTTCAGACTGTGCTAGGTCTTGATTCGCTTGACGCTGCTG: -0.0826 z-score
